# Measurements gathered from unrelated publications.
# Lines come from different studies, so protocols differ.
# Target: Transporter (Slc6a2, Rattus norvegicus, UniProt Q63380)
Compound,test,test system,setting,quantity,result
CCN(CC)c1ccc2c(-c3ccc(S(=O)(=O)NCCCCCC(=O)NCCN4C5CCC4[C@@H](C(=O)OC)[C@@H](c4ccc(Cl)c(Cl)c4)C5)cc3S(=O)(=O)[O-])c3ccc(=[N+](CC)CC)cc-3oc2c1 (stereo partly shown),"ligand displacement, radioligand",,cell membranes,Ki,79 nM
Cc1cccc(C2OCCNC2C)c1 (stereo not shown),inhibitor,,,IC50,5200 nM
CCCC(NCC)C(=O)c1ccc2c(c1)OCO2 (stereo not shown),"transporter uptake, inhibitor, radiometric",,,IC50,105 nM
CNC(C)C(=O)c1ccc(Cl)cc1 (stereo not shown),"substrate release, releaser",rat brain synaptosomes,added: [3H]MPP+,EC50,44 nM
CCC[C@@H](C(=O)c1ccccc1)N1CCCC1,"transporter uptake, inhibitor, radiometric",,,IC50,10 nM
COC(=O)[C@H]1[C@@H](c2ccc(Cl)c(Cl)c2)C[C@@H]2CC[C@H]1N2CCOCCOCCOCCOCCOCCNC(=O)c1ccc2c(c1)C1(OC2=O)c2ccc(N3CCC3)cc2[Si](C)(C)c2cc(N3CCC3)ccc21,"ligand displacement, radioligand",,cell membranes,Ki,241 nM
CCN(CC)CCc1c[nH]c2ccc(OC)cc12,"transporter uptake, inhibitor, radiometric",,,IC50,> 10000 nM
CNC(C)C(=O)c1cccc(C(F)(F)F)c1 (stereo not shown),releaser,,,EC50,370 nM
CCNCCc1c[nH]c2ccccc12,"transporter uptake, inhibitor, radiometric",,,IC50,3860 nM
CNC(C)C(=O)c1ccccc1 (stereo not shown),"substrate release, releasing agent",rat brain synaptosomes,,EC50,21 to 25 nM
CCCN(CCC)CCc1c[nH]c2ccccc12,"transporter uptake, inhibitor, radiometric",,,IC50,3200 nM
CNC(C)C(=O)c1ccc(C(F)(F)F)cc1 (stereo not shown),"substrate release, releaser",rat brain synaptosomes,added: [3H]MPP+,EC50,900 nM
CCN(CC)CCc1c[nH]c2ccccc12,"transporter uptake, inhibitor, radiometric",,,IC50,> 10000 nM
COC(=O)[C@H]1C(c2ccc(I)cc2)C[C@@H]2CC[C@H]1N2C (stereo partly shown),reuptake,rat brain synaptosomes,,IC50,6.35 nM
CC(C)NCCc1c[nH]c2ccccc12,"transporter uptake, inhibitor, radiometric",,,IC50,> 10000 nM
CCC[C@H](C(=O)c1ccc2c(c1)OCO2)N1CCCC1,"transporter uptake, inhibitor, radiometric",,,IC50,726 nM

# Some of these lines once more:
Compound,test,test system,setting,quantity,result
CNC(C)C(=O)c1ccccc1 (stereo not shown),"substrate release, releasing agent",rat brain synaptosomes,,EC50,21 to 25 nM
CCCC(NCC)C(=O)c1ccc2c(c1)OCO2 (stereo not shown),"transporter uptake, inhibitor, radiometric",,,IC50,105 nM
